{"data": "Measured values collected from several papers", "GBA1 R534H": "Lysosomal acid glucosylceramidase (GBA1, Homo sapiens, UniProt P04062, R534H)", "note": "Lines come from different studies, so protocols differ. Values joined by “and” are separate records of one study, mostly repeats; a detail may differ.", "UniProt P04062, sequence (whole entry, unmodified, looked up)": "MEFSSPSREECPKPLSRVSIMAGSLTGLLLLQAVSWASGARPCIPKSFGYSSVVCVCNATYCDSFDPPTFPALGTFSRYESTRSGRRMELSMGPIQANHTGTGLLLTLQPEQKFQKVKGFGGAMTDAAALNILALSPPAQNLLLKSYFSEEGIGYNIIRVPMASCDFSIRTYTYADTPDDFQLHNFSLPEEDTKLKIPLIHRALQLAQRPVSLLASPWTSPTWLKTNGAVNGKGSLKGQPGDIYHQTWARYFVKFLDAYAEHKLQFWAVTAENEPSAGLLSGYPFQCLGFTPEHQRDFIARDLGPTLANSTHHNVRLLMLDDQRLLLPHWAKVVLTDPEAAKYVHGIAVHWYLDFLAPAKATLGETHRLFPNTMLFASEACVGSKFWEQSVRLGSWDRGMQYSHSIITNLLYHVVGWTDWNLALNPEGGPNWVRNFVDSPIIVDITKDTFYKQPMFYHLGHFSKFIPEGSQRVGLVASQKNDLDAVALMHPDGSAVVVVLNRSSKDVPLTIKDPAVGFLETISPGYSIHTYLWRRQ", "UniProt Q9UGP5, sequence (whole entry, looked up)": "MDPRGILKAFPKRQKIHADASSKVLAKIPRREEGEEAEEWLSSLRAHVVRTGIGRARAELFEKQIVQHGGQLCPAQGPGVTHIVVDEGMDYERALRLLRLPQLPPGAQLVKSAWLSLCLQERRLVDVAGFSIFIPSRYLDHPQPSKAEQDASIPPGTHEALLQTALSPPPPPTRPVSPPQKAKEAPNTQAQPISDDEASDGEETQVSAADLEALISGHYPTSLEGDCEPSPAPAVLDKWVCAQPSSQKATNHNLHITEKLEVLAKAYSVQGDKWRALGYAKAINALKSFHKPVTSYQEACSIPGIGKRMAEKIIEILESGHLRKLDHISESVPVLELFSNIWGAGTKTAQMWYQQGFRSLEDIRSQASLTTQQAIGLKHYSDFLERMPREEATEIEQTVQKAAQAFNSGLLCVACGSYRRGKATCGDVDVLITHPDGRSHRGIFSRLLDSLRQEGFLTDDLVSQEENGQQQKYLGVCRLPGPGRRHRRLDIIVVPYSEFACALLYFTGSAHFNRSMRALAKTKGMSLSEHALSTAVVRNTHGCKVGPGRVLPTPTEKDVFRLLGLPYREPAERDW", "UniProt P43220, sequence (whole entry, unmodified, looked up)": "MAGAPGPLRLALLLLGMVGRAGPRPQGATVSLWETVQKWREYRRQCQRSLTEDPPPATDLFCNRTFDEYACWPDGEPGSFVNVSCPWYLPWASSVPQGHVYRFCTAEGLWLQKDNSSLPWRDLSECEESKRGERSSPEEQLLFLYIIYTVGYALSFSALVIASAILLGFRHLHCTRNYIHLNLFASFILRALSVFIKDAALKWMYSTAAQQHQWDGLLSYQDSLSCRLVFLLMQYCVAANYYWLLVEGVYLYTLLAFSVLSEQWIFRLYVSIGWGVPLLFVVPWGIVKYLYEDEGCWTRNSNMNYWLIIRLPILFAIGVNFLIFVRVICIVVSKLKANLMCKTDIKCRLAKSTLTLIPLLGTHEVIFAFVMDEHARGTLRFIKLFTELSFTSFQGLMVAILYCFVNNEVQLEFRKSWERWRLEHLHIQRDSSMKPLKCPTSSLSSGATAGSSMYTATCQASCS", "UniProt P45985, sequence (whole entry, looked up)": "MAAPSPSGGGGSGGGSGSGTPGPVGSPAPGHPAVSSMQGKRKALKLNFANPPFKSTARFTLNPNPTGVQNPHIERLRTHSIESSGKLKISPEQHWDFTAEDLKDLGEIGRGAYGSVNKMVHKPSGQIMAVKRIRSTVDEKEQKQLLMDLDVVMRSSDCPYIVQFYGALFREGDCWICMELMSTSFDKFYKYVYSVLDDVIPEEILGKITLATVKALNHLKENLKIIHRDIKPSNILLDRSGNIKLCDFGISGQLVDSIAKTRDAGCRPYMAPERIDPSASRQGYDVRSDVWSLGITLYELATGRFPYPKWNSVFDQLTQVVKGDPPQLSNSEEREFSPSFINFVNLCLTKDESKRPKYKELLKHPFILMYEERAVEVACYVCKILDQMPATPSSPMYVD", "UniProt Q8TDS7, sequence (whole entry, looked up)": "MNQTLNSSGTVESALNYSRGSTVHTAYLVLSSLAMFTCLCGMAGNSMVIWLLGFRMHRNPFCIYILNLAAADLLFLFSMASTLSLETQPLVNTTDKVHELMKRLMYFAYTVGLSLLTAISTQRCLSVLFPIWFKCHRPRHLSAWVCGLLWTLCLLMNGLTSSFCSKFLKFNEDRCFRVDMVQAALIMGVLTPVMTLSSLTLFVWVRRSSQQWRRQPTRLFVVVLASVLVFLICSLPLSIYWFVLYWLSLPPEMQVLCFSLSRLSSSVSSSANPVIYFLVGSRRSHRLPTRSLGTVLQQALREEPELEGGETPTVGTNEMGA", "UniProt Q9Y5S2, sequence (whole entry, looked up)": "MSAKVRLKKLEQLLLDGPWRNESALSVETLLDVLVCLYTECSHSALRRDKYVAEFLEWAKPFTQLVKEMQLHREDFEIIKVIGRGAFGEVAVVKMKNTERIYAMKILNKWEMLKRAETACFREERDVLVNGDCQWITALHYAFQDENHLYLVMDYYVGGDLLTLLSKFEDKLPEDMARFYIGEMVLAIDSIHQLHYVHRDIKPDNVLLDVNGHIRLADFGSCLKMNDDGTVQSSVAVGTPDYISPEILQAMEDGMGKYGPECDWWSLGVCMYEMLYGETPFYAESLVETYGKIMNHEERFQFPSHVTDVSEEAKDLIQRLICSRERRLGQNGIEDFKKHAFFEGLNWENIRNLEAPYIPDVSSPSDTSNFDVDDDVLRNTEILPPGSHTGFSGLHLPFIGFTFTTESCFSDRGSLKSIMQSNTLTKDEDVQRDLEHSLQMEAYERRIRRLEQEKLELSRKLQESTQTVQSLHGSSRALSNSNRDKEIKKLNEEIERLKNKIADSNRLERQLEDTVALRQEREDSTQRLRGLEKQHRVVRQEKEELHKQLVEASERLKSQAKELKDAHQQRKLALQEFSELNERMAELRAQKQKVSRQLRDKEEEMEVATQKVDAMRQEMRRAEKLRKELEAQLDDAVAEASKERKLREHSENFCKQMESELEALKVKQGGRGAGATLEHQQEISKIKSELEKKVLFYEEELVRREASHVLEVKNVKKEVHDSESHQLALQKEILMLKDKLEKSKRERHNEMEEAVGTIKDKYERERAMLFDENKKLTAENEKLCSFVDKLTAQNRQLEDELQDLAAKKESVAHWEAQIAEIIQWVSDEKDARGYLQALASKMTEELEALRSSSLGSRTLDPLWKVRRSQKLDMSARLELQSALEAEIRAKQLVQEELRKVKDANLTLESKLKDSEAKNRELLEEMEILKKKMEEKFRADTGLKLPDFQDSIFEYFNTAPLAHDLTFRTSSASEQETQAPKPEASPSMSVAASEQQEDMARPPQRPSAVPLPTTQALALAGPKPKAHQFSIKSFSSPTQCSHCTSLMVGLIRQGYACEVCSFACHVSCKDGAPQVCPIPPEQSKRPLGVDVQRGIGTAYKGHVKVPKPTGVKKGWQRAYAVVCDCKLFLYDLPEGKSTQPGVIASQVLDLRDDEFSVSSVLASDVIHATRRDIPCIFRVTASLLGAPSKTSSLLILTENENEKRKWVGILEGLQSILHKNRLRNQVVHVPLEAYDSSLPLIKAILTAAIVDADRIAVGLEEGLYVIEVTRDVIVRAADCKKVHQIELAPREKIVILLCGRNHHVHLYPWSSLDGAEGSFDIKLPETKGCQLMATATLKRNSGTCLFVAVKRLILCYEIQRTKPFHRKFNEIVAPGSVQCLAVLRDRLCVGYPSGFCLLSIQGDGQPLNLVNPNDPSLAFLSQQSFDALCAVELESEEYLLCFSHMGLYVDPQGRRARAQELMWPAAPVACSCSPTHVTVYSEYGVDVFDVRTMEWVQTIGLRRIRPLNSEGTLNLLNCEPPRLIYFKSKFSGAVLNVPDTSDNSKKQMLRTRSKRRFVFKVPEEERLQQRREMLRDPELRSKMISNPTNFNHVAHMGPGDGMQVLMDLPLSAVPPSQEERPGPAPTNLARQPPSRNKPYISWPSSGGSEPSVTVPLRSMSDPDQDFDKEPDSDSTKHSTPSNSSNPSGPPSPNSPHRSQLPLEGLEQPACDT", "UniProt P78368, sequence (whole entry, looked up)": "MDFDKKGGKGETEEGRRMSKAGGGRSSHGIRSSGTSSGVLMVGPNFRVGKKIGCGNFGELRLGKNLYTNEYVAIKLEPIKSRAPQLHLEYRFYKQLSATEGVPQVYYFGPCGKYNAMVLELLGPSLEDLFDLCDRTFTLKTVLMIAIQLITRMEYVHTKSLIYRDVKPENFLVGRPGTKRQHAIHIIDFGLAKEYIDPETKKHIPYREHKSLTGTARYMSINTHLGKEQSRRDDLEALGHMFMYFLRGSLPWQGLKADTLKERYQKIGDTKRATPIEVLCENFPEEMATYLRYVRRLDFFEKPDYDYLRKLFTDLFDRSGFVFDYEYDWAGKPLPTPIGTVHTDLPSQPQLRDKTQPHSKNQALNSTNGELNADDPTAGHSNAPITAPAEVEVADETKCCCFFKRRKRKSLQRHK", "UniProt Q9SZU7, sequence (whole entry, unmodified, looked up)": "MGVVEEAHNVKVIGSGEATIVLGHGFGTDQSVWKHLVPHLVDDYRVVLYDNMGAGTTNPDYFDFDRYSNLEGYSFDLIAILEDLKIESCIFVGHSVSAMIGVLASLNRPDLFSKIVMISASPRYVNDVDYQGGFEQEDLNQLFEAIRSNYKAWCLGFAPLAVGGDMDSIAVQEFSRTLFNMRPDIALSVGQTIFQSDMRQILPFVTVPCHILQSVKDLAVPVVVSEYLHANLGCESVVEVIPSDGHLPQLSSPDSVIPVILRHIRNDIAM"}
{"Compound": "Cc1c[nH]c2nccc(-c3ccc(C(=O)N[C@@H]4c5c(F)cc(C(F)F)cc5C[C@@H]4O)cn3)c12", "tested on": "Dual specificity mitogen-activated protein kinase kinase 4 (MAP2K4, Homo sapiens, UniProt P45985)", "test": "binding, competition with immobilised ligand", "quantity": "Kd", "value": "0.0685 µM"}
{"Compound": "COc1ccc(C2(C(=O)N3CCC(Nc4nc5ccccc5c(=O)[nH]4)CC3)CC2)cc1", "tested on": "MRGPRD (Homo sapiens, UniProt Q8TDS7)", "test": "miniGq recruitment, agonist, BRET", "test system": "HEK293T", "conditions": "wild type", "quantity": "EC50", "value": "0.221 µM"}
{"Compound": "Cc1ccc(NC(=O)CCC(=O)N/N=C/c2ccc([N+](=O)[O-])o2)cc1C", "tested on": "Trypanosoma cruzi", "test": "reporter mRNA translation, inhibitor, item: Renilla luciferase mRNA", "test system": "cell-free extract", "conditions": "concentration not given, test 2", "how to read": "baseline: positive over negative control", "quantity": "translation activity", "value": "121% and 113%"}
{"Compound": "O=P(O)(O)OP(=O)(O)OP(=O)(O)OCCCCO", "tested on": "DNA polymerase lambda (POLL, Homo sapiens, UniProt Q9UGP5)", "test": "DNA polymerase activity, inhibitor", "conditions": "together with: 1 mM Mn2+, poly(dA)/oligo(dT)", "quantity": "Ki", "value": "9 µM"}
{"Compound": "Cc1nn(-c2cccc(N)c2)c(=O)c2cnc(Nc3ccc(N4CCNCC4)cc3)nc12", "tested on": "Casein kinase I isoform gamma-2 (CSNK1G2, Homo sapiens, UniProt P78368)", "test": "SelectScreen kinase", "quantity": "IC50", "value": "> 10 µM"}
{"Compound": "CSCC[C@H](NC(=O)[C@H](CCC(N)=O)NC(=O)[C@H](CCCCN)NC(=O)[C@H](CCCNC(=N)N)NC(=O)[C@H](Cc1ccc(O)cc1)NC(=O)[C@H](CCCNC(=N)N)NC(=O)[C@H](CO)NC(=O)[C@H](Cc1ccc(O)cc1)NC(=O)[C@H](CO)NC(=O)[C@H](CC(=O)O)NC(=O)[C@@H](NC(=O)[C@@H](N)Cc1ccccc1)[C@@H](C)O)C(=O)N[C@@H](C)C(=O)N[C@H](C(=O)N[C@@H](CCCCN)C(=O)N[C@@H](CCCCN)C(=O)N[C@@H](Cc1ccc(O)cc1)C(=O)N[C@@H](CC(C)C)C(=O)N[C@@H](C)C(=O)N[C@@H](C)C(=O)N[C@H](C(=O)N[C@@H](CC(C)C)C(=O)NCC(=O)N[C@@H](CCCCN)C(=O)N[C@@H](CCCNC(=N)N)C(=O)N[C@@H](Cc1ccc(O)cc1)C(=O)N[C@@H](CCCCN)C(=O)N[C@@H](CCC(N)=O)C(=O)N[C@@H](CCCNC(=N)N)C(=O)N[C@H](C(=O)N[C@@H](CCCCN)C(=O)N[C@@H](CC(N)=O)C(=O)N[C@@H](CCCCn1cc(C[C@H](NC(=O)CNC(=O)[C@H](CO)NC(=O)[C@H](CCCNC(=N)N)NC(=O)[C@H](CO)NC(=O)[C@H](CC(C)C)NC(=O)[C@H](CC(C)C)NC(=O)CNC(=O)[C@H](C)NC(=O)[C@H](CC(C)C)NC(=O)[C@H](CCCNC(=N)N)NC(=O)[C@H](Cc2c[nH]cn2)NC(=O)[C@@H](NC(=O)[C@@H](N)C(C)C)[C@@H](C)O)C(=O)N[C@H](C(=O)N[C@H](C(=O)N[C@@H](CCCCN)C(=O)N[C@@H](CC(N)=O)C(=O)N[C@@H](CC(N)=O)C(=O)N[C@@H](Cc2ccccc2)C(=O)N[C@H](C(=O)N2CCC[C@H]2C(=O)N[C@H](C(=O)N[C@@H](CC(N)=O)C(=O)N[C@H](C(=O)NCC(=O)N[C@@H](CO)C(=O)N[C@@H](CCCCN)C(=O)N[C@@H](C)C(=O)N[C@@H](Cc2ccccc2)C(N)=O)C(C)C)[C@@H](C)O)C(C)C)C(C)C)C(C)C)nn1)C(N)=O)C(C)C)C(C)C)C(C)C", "tested on": "PACAP-responsive receptors, rat", "test": "cAMP accumulation, antagonist", "test system": "rat spinal cord", "conditions": "together with: VIP", "quantity": "Kb", "value": "0.229 µM"}
{"Compound": "OC[C@@H]1[C@@H](O)[C@H](O)[C@@H](O)CN1CCCCCOCCC12CC3CC(CC(C3)C1)C2", "tested on": "GBA1 R534H", "test": "inhibitor, 4MU-β-D-glucopyranoside", "conditions": "together with: 4MU-β-D-glucopyranoside", "quantity": "IC50", "value": "0.19 µM"}
{"Compound": "CCc1nc2cc3ccccc3cc2cc1C(=O)N1CCC[C@H]1C(=O)N[C@@H](C/C=C/C[C@H](NC(=O)[C@@H]1CCCN1C(=O)c1cc2cc3ccccc3cc2nc1CC)C(=O)N[C@@H](CCCCN)C(=O)NCCCN)C(=O)N[C@@H](CCCCN)C(=O)NCCCN", "tested on": "(CUG)4 RNA", "test": "SPR", "quantity": "Kd", "value": "0.048 µM"}
{"Compound": "C[C@]12CCC(O)CC1=CCC1C2CC[C@]2(C)/C(=N\\NC(N)=S)CCC12 (stereo partly drawn)", "tested on": "Trypanosoma cruzi", "test": "reporter mRNA translation, inhibitor, item: Renilla luciferase mRNA", "test system": "cell-free extract", "conditions": "concentration not given, test 2", "how to read": "baseline: positive over negative control", "quantity": "translation activity", "value": "160% and 103%"}
{"Compound": "CC(C)=CCOCCCCCN1C[C@H](O)[C@@H](O)[C@H](O)[C@@H]1CO", "tested on": "GBA1 R534H", "test": "inhibitor, 4MU-β-D-glucopyranoside", "conditions": "together with: 4MU-β-D-glucopyranoside", "quantity": "IC50", "value": "100 µM"}
{"Compound": "Cc1cccc2c1N(C(=O)n1ccnn1)CC2", "tested on": "KAI2 (Arabidopsis thaliana, UniProt Q9SZU7, L218A)", "test": "ITC", "conditions": "L218A mutant, mean", "quantity": "Kd", "value": "10.9 µM"}
{"Compound": "OC[C@@H]1[C@@H](O)[C@H](O)[C@@H](O)CN1CCCCCOCc1ccc(-c2ccnc(F)c2)cc1", "tested on": "GBA1 R534H", "test": "inhibitor, 4MU-β-D-glucopyranoside", "conditions": "together with: 4MU-β-D-glucopyranoside", "quantity": "IC50", "value": "2 µM"}
{"Compound": "Cn1ncc2cc(-c3cncc(Cl)c3N3CCC4(CCNC4=O)CC3)ccc21", "tested on": "Serine/threonine-protein kinase MRCK beta (CDC42BPB, Homo sapiens, UniProt Q9Y5S2)", "test": "cell-free assay", "conditions": "lysate", "quantity": "Kd", "value": "18.2 µM"}
{"Compound": "OC[C@H]1[C@@H](O)[C@H](O)[C@@H](O)CN1CCCCCOCC12CC3CC(C1)CC(COCCCCCN1C[C@H](O)[C@@H](O)[C@H](O)[C@@H]1CO)(C3)C2", "tested on": "GBA1 R534H", "test": "inhibitor, 4MU-β-D-glucopyranoside", "conditions": "together with: 4MU-β-D-glucopyranoside", "quantity": "IC50", "value": "6 µM"}
{"Compound": "COc1cc(C2C(NC(=O)c3ccc(NC(=O)OC(C)(C)C)cc3)(C(=O)O)C(c3ccc(OC(=O)c4cccs4)c(OC)c3)C2(NC(=O)c2ccc(NC(=O)OC(C)(C)C)cc2)C(=O)O)ccc1OC(=O)c1cccs1 (stereo not drawn)", "tested on": "Glucagon-like peptide 1 receptor (GLP1R, Homo sapiens, UniProt P43220, L388A)", "test": "cAMP, agonist", "quantity": "EC50", "value": "0.0759 µM"}
{"note": "For quick reference, copied from above:"}
{"Compound": "OC[C@@H]1[C@@H](O)[C@H](O)[C@@H](O)CN1CCCCCOCc1ccc(-c2ccnc(F)c2)cc1", "tested on": "GBA1 R534H", "test": "inhibitor, 4MU-β-D-glucopyranoside", "conditions": "together with: 4MU-β-D-glucopyranoside", "quantity": "IC50", "value": "2 µM"}
{"Compound": "Cn1ncc2cc(-c3cncc(Cl)c3N3CCC4(CCNC4=O)CC3)ccc21", "tested on": "Serine/threonine-protein kinase MRCK beta (CDC42BPB, Homo sapiens, UniProt Q9Y5S2)", "test": "cell-free assay", "conditions": "lysate", "quantity": "Kd", "value": "18.2 µM"}
